Assay results gathered from unrelated publications.
Each numbered part is a random draw from the data of one study; scales do not carry over between parts.

Block 1
Target: Max-binding protein MNT, bHLH-zipper, MAX partner unstated (MNT, Homo sapiens, UniProt Q99583, residues 220-300)
Method: protein-binding microarray
Form: double-stranded DNA, one strand shown
Matrix: in vitro
Concentration: not given
Setting: k-mer, scored over probes, only values ≥0.25
Reading: higher = stronger binding
Construct (chain): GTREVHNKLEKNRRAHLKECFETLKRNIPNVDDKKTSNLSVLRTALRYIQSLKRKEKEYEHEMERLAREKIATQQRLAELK
| Sequence | E-score |
| --- | --- |
| CATGTGAG | 0.444 |
| CATGCCGC | 0.384 |
| CGTGCACG | 0.457 |
| ACCATGCA | 0.35 |

Block 2
Target: Sal-like protein 4, full length isoform B (SALL4, Homo sapiens, UniProt Q9UJQ4-2, residues 1-616)
Method: universal PBM
Form: double-stranded DNA, one strand shown
Matrix: in vitro
Concentration: not given
Setting: 8-mer, flanks averaged, mean of replicates
Reading: higher = stronger binding
| Sequence | E-score |
| --- | --- |
| ATGCGCCC | -0.236 |
| AGCTACCC | -0.116 |
| CGCGTCGC | -0.281 |
| TAGTACTA | 0.166 |
| ACCTGAGG | -0.225 |
| GGAGGTCA | -0.127 |
| ATCAGTCA | 0.0146 |
| GTATATCA | 0.341 |

Block 3
Target: Histone acetyltransferase KAT6A, both winged helices, GST fusion (KAT6A, Homo sapiens, UniProt Q92794, residues 1-181)
Method: protein binding microarray
Form: double-stranded DNA, one strand shown
Matrix: in vitro
Concentration: not given
Setting: 8-mer, flanks averaged, mean of 2 arrays, mostly near background
Relative to: not given
Reading: higher = stronger binding
Construct (chain): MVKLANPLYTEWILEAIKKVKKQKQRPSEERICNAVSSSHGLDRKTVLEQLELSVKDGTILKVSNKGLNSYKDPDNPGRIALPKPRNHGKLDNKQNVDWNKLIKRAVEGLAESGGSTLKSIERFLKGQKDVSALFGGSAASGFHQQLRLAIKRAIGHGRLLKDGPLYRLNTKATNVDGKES
| Sequence | E-score |
| --- | --- |
| TGATAACA | -0.0471 |
| CATCTAGG | -0.222 |
| GTACATAC | -0.0596 |
| CGGATCCG | 0.293 |
| CGGATTAA | 0.144 |
| ACTGCGTA | 0.151 |
| CAGAGCGA | 0.0122 |
| GACTAAAC | -0.00445 |

Single results of other studies
| Substance | target | test | test system | setting | scale | quantity | result |
| --- | --- | --- | --- | --- | --- | --- | --- |
| PhoQ, residues 284 288 289 292 302 303 TNSAEL | PhoP, residues 12 14 15 18 19 LQHIR (Escherichia coli, UniProt P23836) | Sort-seq, item: YFP reporter | E. coli | PhoQ-PhoP variant library, added: 10 µM Mg2+ | relative to: high Mg2+ state, higher = stronger signaling | fold induction | 1.78 |

Excerpt of the above (block 2):
| Sequence | E-score |
| --- | --- |
| ACCTGAGG | -0.225 |
| GGAGGTCA | -0.127 |
| ATCAGTCA | 0.0146 |
